Measurements collected from several papers.
Every numbered part comes from another study and shows a few of its results, in no order.

Sample 1
Cell line: HEK-293T
Organism: VSV pseudotyped with SARS-CoV-2 spike
Concentration: 10 µM
Time: 16 h
Structure (SMILES) | pseudovirus infection [%]
CCCN[C@H]1CCc2nc(N)sc2C1 | 105
Clc1ccccc1C(c1ccccc1)(c1ccccc1)n1ccnc1 | 80.5
Clc1ccc2c(c1)CCc1cccnc1C2=C1CCNCC1 | 35.2
Clc1ccc(C(Cn2ccnc2)OCc2ccsc2Cl)c(Cl)c1 (stereo not drawn) | 72.2
O=C1OCCN1/N=C/c1ccc([N+](=O)[O-])o1 | 100

Sample 2
Target: Replicase polyprotein 1ab, polymerase (rep, Severe acute respiratory syndrome coronavirus 2, UniProt P0DTD1)
Observed: enzyme activity
Mode: inhibitor
Concentration: 20 µM
SMILES | inhibition [%]
N#CCCCSC(=N)N | -2.56
CN1CCN(c2c(F)cc3c(=O)c(C(=O)O)cn4c3c2OCN4C)CC1 | 5.12
CCC(CC)O[C@@H]1C=C(C(=O)O)C[C@H](N)[C@H]1NC(C)=O | -3.46
O=C(O)CCc1nc2ccccc2[nH]1 | 1.57
Clc1cccc(N2CCNCC2)c1 | 3.75
CCCCCCCCCCC(=O)O[C@H]1CC[C@H]2[C@@H]3CCC4=CC(=O)CC[C@]4(C)[C@H]3CC[C@]12C | -1.48
COC[C@@H](NC(C)=O)C(=O)NCc1ccccc1 | -4.36
C=CCSCC1Nc2cc(Cl)c(S(N)(=O)=O)cc2S(=O)(=O)N1 (stereo not drawn) | 0.93
NC(N)=Nc1nc(CSCC/C(N)=N/S(N)(=O)=O)cs1 | 0.22
COC(=O)[C@@]12OC[C@]34[C@H]([C@@H](O)[C@@H]1O)[C@@]1(C)CC(=O)C(O)=C(C)[C@@H]1C[C@H]3OC(=O)[C@H](OC(=O)/C=C(\C)C(C)C)[C@@H]24 | -4.07
[N-]=[N+]=N[C@]1(CO)O[C@@H](n2ccc(N)nc2=O)[C@H](O)[C@@H]1O | -5
COC(=O)N[C@H](C(=O)N1CCC[C@H]1c1nc(-c2ccc3c(c2)O[C@@H](c2ccccc2)n2c-3cc3cc(-c4c[nH]c([C@@H]5CCCN5C(=O)[C@@H](NC(=O)OC)C(C)C)n4)ccc32)c[nH]1)C(C)C | 0.51
COc1cccc(NC(=O)/C=C/c2ccc(Cl)cc2)c1 | -1.36

Sample 3
Target: Replicase polyprotein 1ab, main protease (rep, Severe acute respiratory syndrome coronavirus 2, UniProt P0DTD1)
Observed: enzyme activity
Concentration: 20 µM
Setting: with DTT
Compound | inhibition [%]
CCOC(=O)c1c(N)sc(-c2ccccc2)c1C | 96
Cc1ccccc1N(C)C(=O)c1ccc([S+]([O-])c2nccs2)c([N+](=O)[O-])c1 (stereo not drawn) | 73.8
O=c1[nH]nc(Sc2ncc([N+](=O)[O-])s2)n1-c1ccc2c(c1)OCCO2 | 21.2
O=[N+]([O-])c1ccc(Sc2cccc[n+]2[O-])c2nonc12 | 100

Sample 4
Target: Interferon regulatory factor 7, full length, phosphomimetic (IRF7, Homo sapiens, UniProt Q92985, residues 1-503, S101K/S471D/S472D/S475D/S476D/S477D/S483D/S484D/S487D)
Method: protein-binding microarray
Form: double-stranded DNA, one strand shown
Medium: in vitro
Concentration: 250 nM
Setting: 60-bp whole probe
With: salmon DNA 0.4 mg/ml
Baseline: random background probes
Reading: higher = stronger binding
Constant ends, left off below: GCCTAGCAC … GTCTTGATTCGCTTGACGCTGCTG
Construct (chain): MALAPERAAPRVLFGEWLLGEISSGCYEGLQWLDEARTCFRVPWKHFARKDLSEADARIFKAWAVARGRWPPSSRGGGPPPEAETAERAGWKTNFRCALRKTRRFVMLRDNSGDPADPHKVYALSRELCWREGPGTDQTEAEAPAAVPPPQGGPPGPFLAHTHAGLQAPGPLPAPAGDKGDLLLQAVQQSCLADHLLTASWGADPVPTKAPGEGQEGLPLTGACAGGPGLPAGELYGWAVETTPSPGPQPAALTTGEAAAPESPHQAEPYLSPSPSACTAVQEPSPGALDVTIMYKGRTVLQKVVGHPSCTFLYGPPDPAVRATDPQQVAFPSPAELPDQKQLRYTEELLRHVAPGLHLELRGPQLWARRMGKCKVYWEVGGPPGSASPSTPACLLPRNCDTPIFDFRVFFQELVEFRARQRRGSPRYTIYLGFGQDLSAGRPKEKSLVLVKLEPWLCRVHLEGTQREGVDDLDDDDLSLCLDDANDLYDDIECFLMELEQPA
Sequence | log fluorescence
TCACTGCTCCTTCTGACACTGTGCTAG | -0.208 z-score
GACGTTTTCGGGACTGGAGACGTGCTA | 0.83 z-score
GACGGTATCGTTATCCTGACGTGCTAG | 1.77 z-score
TTAGGACTGCGTCTCCTTTAGTGCTAG | -0.343 z-score
GTTCTACCTCTGCCTTTTGTGTGCTAG | 1.44 z-score
CTGTACATCTATGTAGAAAGGTGCTAG | 0.43 z-score
AGAGAGAGAGAGAGAGAGAGGTGCTAG | 0.132 z-score
GACGGTAGCCTTCTCCTGACGTGCTAG | -0.95 z-score

Excerpt of the above (sample 2):
SMILES | inhibition [%]
[N-]=[N+]=N[C@]1(CO)O[C@@H](n2ccc(N)nc2=O)[C@H](O)[C@@H]1O | -5
NC(N)=Nc1nc(CSCC/C(N)=N/S(N)(=O)=O)cs1 | 0.22
CCCCCCCCCCC(=O)O[C@H]1CC[C@H]2[C@@H]3CCC4=CC(=O)CC[C@]4(C)[C@H]3CC[C@]12C | -1.48
O=C(O)CCc1nc2ccccc2[nH]1 | 1.57
COC[C@@H](NC(C)=O)C(=O)NCc1ccccc1 | -4.36
